# Published values collected from several papers.
# Values joined by “and” are separate records of one study, mostly repeats; a detail may differ. Numbers after ± are the reported error.
Compound,test,system,setting,scale,quantity,value
O=C(CCc1cn(CCOCCOCCOCC[18F])nn1)Nc1ccc(-c2nnc(-c3ccccn3)nn2)nc1,,"BALB/c nude mouse, LS174T xenograft","intravenous, dose not given, 1 h, with: CC49-TCO pretargeting",,tumour to control tumour ratio,1
O=C(NS(=O)(=O)c1cccs1)c1cc2ccccc2n1Cc1ccc(Br)c2ccccc12,,"KM mouse, chronic hyperuricaemia model","dose not given, day 2",,body weight,25.5 g and 26.7 g and 28.7 g and 28.4 g
Cc1cc(-c2ccc(C(=O)[C@@H]3CCCC[C@H]3C(=O)Nc3cnn4c3C(=O)NCC4)cc2)[nH]n1,,"human, faeces","oral, 200 mg, 0-216 h",relative to: dose,cumulative recovery of radioactivity,78.8%
Cc1cccc(Cn2ncc3c4cc(F)c(CN(C)C)cc4n(C)c3c2=O)n1,,"Dutch-belted rabbit, plasma","intravitreal, 100 µM vitreous, 14.00 days",,plasma concentration,not detected
C=CC(=O)Nc1cc(Nc2nccc(-c3c[nH]c4ccccc34)n2)c(OC)cc1N(C)CCN(C)C,storage stability,human plasma,"30 d, on ice, HQC level",,recovery,53.1%
CN([O-])C(=O)CN1CCN(CC(=O)N(C)[O-])CCN(Cc2ccccn2)CC1.[89Zr+4],,"mouse, pancreas","intravenous, 24 h",,tracer uptake,0.28 %ID/g
OC1(C(F)(F)F)CCN(c2nc(Nc3ccnc(C(F)(F)F)c3)nc(-c3cccc(C(F)(F)F)n3)n2)C1 (stereo not shown),,"monkey, both sexes, plasma","intravenous, 1 mg/kg",,clearance,1.89 ± 0.193 mL/min/kg
OCC1OC(n2cnc3c(NCc4ccc(Br)s4)ncnc32)C(O)C1O (stereo not shown),,"ICR mice, male, blood","oral, 10 mg/kg",,t1/2,3 ± 1 h
O=C(OC(C(F)(F)F)C(F)(F)F)N1CCC(CNS(=O)(=O)c2ccc(Cl)cc2)CC1,,"CB17 SCID mice, male, plasma","oral, 10 mg/kg",,Tlast,8 h
C[N+](C)(CCOCCOCCOCCNC(=S)Nc1ccc(C[C@H]2CN(CC(=O)[O-])CCN(CC(=O)[O-])CCN2CC(=O)[O-])cc1)C[c-]1cccc1.[64Cu+2].[Fe+2].c1cc[cH-]c1,pretargeted biodistribution,"nude mouse, BxPC-3 xenograft tumour","8 h post injection, 72 h lag time",,tumour uptake,3.1 ± 0.6 %ID/g
CN(O)C(=O)CCC(=O)NCCCN(CCCCN(CCCNC(=O)CCC(=O)N(C)O)C(=O)CCC(=O)N(C)O)C(=O)CCC(=O)N(C)O.[89Zr],radio-TLC,aqueous buffer,"3 d, pH 8.5, 37 °C, 89Zr-labelled complex, with: DTPA 1000-fold excess",,intact complex,99.2 ± 0.7%
Cc1cc(NC(=O)[C@H](O)c2cc(F)cc(F)c2)ccc1-c1cnc(N)c(C(=O)NC(C)C)c1,,"athymic nude Foxn1nu mouse, female, plasma","oral, 50 mg/kg",,dose-normalised Cmax,156 ng·kg/mL/mg
CN1CCC[C@]1(C)/C=C/S(=O)(=O)NC(=O)Nc1c2c(cc3c1C(O)CC3)CCC2 (stereo partly shown),,"human, plasma","oral, 100 mg twice daily of parent drug, day 14, metabolite of dosed drug",,Tmax at first steady-state dose,2 h
C=C(NC(=O)c1csc(-c2nc3c(cc2O)-c2nc(cs2)C(=O)NC(C(C)O)C(=O)NC(=C(C)OC)c2nc(cs2)C(=O)NC2c4nc(cs4)C(=O)NC(COC(=O)c4c5c6c(cccc6n4O)COC(=O)C(OC4CC(C)(O)C(N(C)C)C(C)O4)C2OC5)c2nc-3cs2)n1)C(N)=O (stereo not shown),,"ICR mice, Streptococcus pneumoniae ATCC 49169 infected, immunocompromised, blood","intravenous, 4 mg/kg once daily",,AUC(0-t),0.216 µM·h
CC[C@H](C)[C@@H]1NC(=O)[C@H](Cc2ccc(O)cc2)NC(=O)CCCSC[C@@H](C(=O)N(CC(=O)N[C@@H](CC(C)C)C(=O)NCC(N)=O)Cc2ccc(F)cc2)NC(=O)[C@H](CC(N)=O)NC(=O)[C@H](CCC(N)=O)NC1=O,,"human, plasma","intravenous, 20 µg, infusion",,AUC(0-inf),0.158 ng·h/mL
CC(C)(F)CC(NC(c1ccc(-c2ccc(S(C)(=O)=O)cc2)cc1)C(F)(F)F)C(=O)NCC#N (stereo not shown),,PBS,"100 µM, 23 h, pH 7.45, 37 °C, with: cysteine 10 mM",,cysteine adduct formation,91%
CN1C(=O)[C@@H](Cc2ccc(O)c(I)c2)NC(=O)CNC(=O)[C@H](Cc2ccc3ccccc3c2)NC(=O)[C@H](CCCNC(=N)N)NC(=O)[C@H]1CCCNC(=O)c1ccc(CNC(=O)CN2CCN(CC(=O)O)CCN(CC(=O)O)CCN(CC(=O)O)CC2)cc1 [lutetium-177 labelled],2,"human, extrapolated from mouse, Upper large intestine wall",,,total absorbed dose,0.17 mGy/MBq
C/C(N)=N/C(=N\S(=O)(=O)c1ccc(C(F)(F)F)cc1)N1C[C@H](c2ccccc2)C(c2ccc(Cl)cc2)=N1,,"C57BL/6 mouse, lung","intravenous, 10 mg/kg",,Tmax,6 min
O=C([O-])CN1CCN(CC(=O)[O-])CCN(CC(CCCc2ccccc2[N+](=O)[O-])N(CC(=O)[O-])CC(=O)[O-])CC1.[90Y+3] (stereo not shown),TLC,human serum,"264 h, pH 7, 37 °C",,intact radiolabelled complex,99.6 ± 0.5%
Cc1nn(-c2nc3c(F)cc(F)cc3s2)c(O)c1C(c1ccc(C(F)(F)F)cc1)c1c(C)nn(-c2nc3c(F)cc(F)cc3s2)c1O,,"male ICR mouse, plasma","intravenous, 5 mg/kg",,dose-normalised AUC(0-t),7210 kg·ng·h/mL/mg and 9350 kg·ng·h/mL/mg and 17600 kg·ng·h/mL/mg
C=CC(=O)Nc1cc(Nc2nccc(-c3cn(C4CC4)c4ccccc34)n2)c(OC)cc1N(C)CCNC,bench-top stability,rat plasma,"40 ng/mL, 3 h, room temperature",relative to: nominal concentration,relative error,0.5%
CCCC[C@H](NC(=O)CNC(=O)CNC(=O)[C@H](CCCCNC(=O)[C@H](CC(=O)O)NC(=O)C(C)c1ccc(CC(C)C)cc1)NC(=O)CN1CCN(CC(=O)O)CCN(CC(=O)O)CCN(CC(=O)O)CC1)C(=O)N[C@H]1CC(=O)NCCCC[C@@H](C(N)=O)NC(=O)[C@H](Cc2c[nH]c3ccccc23)NC(=O)[C@H](CCCNC(=N)N)NC(=O)[C@@H](Cc2ccccc2)NC(=O)[C@H](Cc2c[nH]cn2)NC1=O (stereo partly shown) [lutetium-177 labelled],,C57 mouse,"intravenous, 2 h, with: NDP-MSH blockade",relative to: tumour over lung,tumour to tissue ratio,2.2
COc1ccnc(C(=O)N[C@H]2COC(=O)[C@H](Cc3ccccc3)[C@@H](OC(=O)C(C)C)[C@H](C)OC2=O)c1O,aerobic dark soil incubation,clay loam soil,"20 °C, modelling endpoint",,DT50,7.68 days
COc1cccc(OC)c1-c1cc(C(=O)NC2(C(=O)O)C3CC4CC(C3)CC2C4)nn1-c1ccc(C(=O)N(C)CCOCCN(C)C(=O)[C@H](CCCCNC(=O)[C@H](CC(C)C)NC(=O)C2OC2C(=O)O)NC(=O)CN2CCN(CC(=O)[O-])CCN(CC(=O)[O-])CCN(CC(=O)[O-])CC2)cc1C(C)C.[177Lu+3] (mixture of isomers),,"mouse, HT-29 xenograft, lung",24 h post injection,,tissue uptake,2.1 %ID/g
COc1ccc2c(c1)CCn1c[n+]3c(c1-2)-c1ccc(OC)cc1CC3,,"female NSG mice, blood","6 mg/kg, day 20, 5 days per week",,Neutrophils,67.6 ± 10.6%
O=C(Nc1cnccc1-c1ccc([18F])cc1)c1ccnc(NC(=O)C2CC2)c1,,"FVB/NJ mice (both sexes), muscle","intravenous, dose not given, 120 min, with: tariquidar 15 mg/kg i.v. pre-dose",,SUV,0.23
Cc1n[nH]c(C)c1CCCOc1cc(C(=O)NCCCCC(NC(=O)CN2CCN(CC(=O)[O-])CCN(CC(=O)[O-])CCN(CC(=O)[O-])CC2)C(=O)NCC2CCC(C(=O)NC(Cc3ccc4ccccc4c3)C(=O)NCCCCC(NC(=O)NC(CCC(=O)O)C(=O)O)C(=O)O)CC2)ccc1F.[177Lu+3] (stereo not shown),,"BALB/c mouse, blood",intravenous,,distribution half-life,1.64 min
CCCCN1C(=O)c2cccc3c(NCCCCCCCCCCN4CCOCC4)ccc(c23)C1=O,,ethylene glycol,,,fluorescence lifetime,7.1 ns
